Results gathered from unrelated publications.
Lines come from different studies, so protocols differ. ± gives the spread as reported.
Method: steady-state kinetics
B1: Saccharopine reductase C154S (Saccharomyces cerevisiae, UniProt P38999); chain MGKNVLLLGSGFVAQPVIDTLAANDDINVTVACRTLANAQALAKPSGSKAISLDVTDDSALDKVLADNDVVISLIPYTFHPNVVKSAIRTKTDVVTSSYISPALRELEPEIVKAGITVMNEIGLDPGIDHLYAVKTIDEVHRAGGKLKSFLSYSGGLPAPEDSDNPLGYKFSWSSRGVLLALRNSAKYWKDGKIETVSSEDLMATAKPYFIYPGYAFVCYPNRDSTLFKDLYHIPEAETVIRGTLRYQGFPEFVKALVDMGMLKDDANEIFSKPIAWNEALKQYLGAKSTSKEDLIASIDSKATWKDDEDRERILSGFAWLGLFSDAKITPRGNALDTLCARLEELMQYEDNERDMVVLQHKFGIEWADGTTETRTSTLVDYGKVGGYSSMAATVGYPVAIATKFVLDGTIKGPGLLAPYSPEINDPIMKELKDKYGIYLKEKTVA
B2: estF (Pseudomonas fluorescens, UniProt P22862); chain STFVAKDGTQIYFKDWGSGKPVLFSHGWLLDADMWEYQMEYLSSRGYRTIAFDRRGFGRSDQPWTGNDYDTFADDIAQLIEHLDLKEVTLVGFSMGGGDVARYIARHGSARVAGLVLLGAVTPLFGQKPDYPQGVPLDVFARFKTELLKDRAQFISDFNAPFYGINKGQVVSQGVQTQTLQIALLASLKATVDCVTAFAETDFRPDMAKIDVPTLVIHGDGDQIVPFETTGKVAAELIKGAELKVYKDAPHGFAVTHAQQLNEDLLAFLKR
B3: BshA Y95F (Bacillus subtilis, UniProt P42982); chain MRKLKIGITCYPSVGGSGIIATELGKQLAEKGHEIHFITSSIPFRLNTYHPNIHFHEVEVNQYAVFKYPPYDLTLASKIAEVAERENLDIIHAHFALPHAVCAYLAKQMLKRNIGIVTTLHGTDITVLGYDPSLKDLIRFAIESSDRVTAVSSALAAETYDLIKPEKKIETIYNFIDERVYLKKNTAAIKEKHGILPDEKVVIHVSNFRKVKRVQDVIRVFRNIAGKTKAKLLLVGDGPEKSTACELIRKYGLEDQVLMLGNQDRVEDLYSISDLKLLLSEKESFGLVLLEAMACGVPCIGTNIGGIPEVIKNNVSGFLVDVGDVTAATARAMSILEDEQLSNRFTKAAIEMLENEFSSKKIVSQYEQIYADLAEPE
B4: hdhb (Clostridium sardiniense, UniProt G9FRD6); chain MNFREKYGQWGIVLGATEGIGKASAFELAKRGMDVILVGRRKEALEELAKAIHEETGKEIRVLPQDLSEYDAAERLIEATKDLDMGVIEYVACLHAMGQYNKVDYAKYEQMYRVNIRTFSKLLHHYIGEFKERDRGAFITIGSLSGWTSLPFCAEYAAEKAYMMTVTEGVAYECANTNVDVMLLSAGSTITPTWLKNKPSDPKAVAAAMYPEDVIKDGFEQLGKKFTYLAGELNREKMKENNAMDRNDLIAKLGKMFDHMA
B5: nicotinamidase (Streptococcus pneumoniae, UniProt A0A0H2UR34); chain MTKALISIDYTEDFVADSGKLTAGAPAQAISDAISKVTRLAFERGDYIFFTIDAHEENDCFHPESKLFPPHNLIGTSGRNLYGDLGIFYQEHGSDSRVFWMDKRHYSAFSGTDLDIRLRERRVSTVILTGVLTDICVLHTAIDAYNLGYDIEIVKPAVASIWPENHQFALGHFKNTLGAKLVDENLNELFE
B6: LYS1 C205S/D319A (Saccharomyces cerevisiae, UniProt P38998); chain MAAVTLHLRAETKPLEARAALTPTTVKKLIAKGFKIYVEDSPQSTFNINEYRQAGAIIVPAGSWKTAPRDRIIIGLKEMPETDTFPLVHEHIQFAHCYKDQAGWQNVLMRFIKGHGTLYDLEFLENDQGRRVAAFGFYAGFAGAALGVRDWAFKQTHSDDEDLPAVSPYPNEKALVKDVTKDYKEALATGARKPTVLIIGALGRSGSGAIDLLHKVGIPDANILKWDIKETSRGGPFDEIPQADIFINCIYLSKPIAPFTNMEKLNNPNRRLRTVVDVSADTTNPHNPIPIYTVATVFNKPTVLVPTTAGPKLSVISIAHLPSLLPREASEFFSHDLLPSLELLPQRKTAPVWVRAKKLFDRHCARVKRSSRL
B7: enzyme R108A (Sinorhizobium meliloti, UniProt Q92UV7); chain MTNAEVTIAVRHEPMRIAGRLVDTDDRVEVRYPWNDTVVGTVPAGRAEHAREAFAIAAAYQPKLTRYERQKILLATAEALAARKEEISDVITLELGISKADSLYEVGAAFDVFTLAGQMCIRDDGEIFSCDLTPHGKARKIFTMREPLTAISAITPFNHPLNMVAHKVAPAIATNNCVVVKPTELTPMTALLLADILYEAGLPPEMLSVVTGWPADIGMEMITNPHVDLVTFTGSVPVGKLIAANAHYKRQVLELGGNDPLIILNDLSDDDLARAADLAVAGATKNSGQRCTAVKRILCQESVADRFVPLVLERAKRLRFGDPMDRSTDLGTVIHEKAAALFEERVMRAAEEGADILYHPGRSGALLPPIVVDRVPHQSDLVLEETFGPIIPIVRVPDDDDATITLSNSTAFGLSSGVCTNDYRRMQKYIAGLKVGTVNIWEVPGYRIEMSPFGGIKDSGNGYKEGVIEAMKSFTNVKTFSLPWP
B8: Nudt8 (Mus musculus, UniProt Q9CR24); chain MLPDGLSAEDEQRCRQLLARTTARLRSRPAAAAVLVPLCLVRGVPALLYTLRSSRLVGRHKGEVSFPGGKCDPDDQDVIHTALRETQEELGLEVPKEHVWGVLQPVYDREKATIVPVLANVGPLDLQSLRPNLEEVDEVFEMSLAHLLQTQNQGYTHFCQGGHFSYTLPVFLHGPHRVWGLTAVITELTLKLLAPGFYQPSLAVPELPRG
B9: MCAT R178A (Homo sapiens, UniProt Q8IVS2); chain GQGSQVVGMGRGLLNYPRVRELYAAARRVLGYDLLELSLHGPQETLDRTVHCQPAIFVASLAAVEKLHHLQPSVIENCVAAAGFSVGEFAALVFAGAMEFAEGLYAVKIAAEAMQEASEAVPSGMLSVLGQPQSKFNFACLEAREHCKSLGIENPVCEVSNYLFPDCRVISGHQEALRFLQKNSSKFHFRRTRMLPVSGAFHTRLMEPAVEPLTQALKAVDIKKPLVSVYSNVHAHRYRHPGHIHKLLAQQLVSPVKWEQTMHAIYERKKGRGFPQTFEVGPGRQLGAILKSCNMQAWKSYSAVDVL
UniProt Q6WZB0, sequence (whole entry, looked up): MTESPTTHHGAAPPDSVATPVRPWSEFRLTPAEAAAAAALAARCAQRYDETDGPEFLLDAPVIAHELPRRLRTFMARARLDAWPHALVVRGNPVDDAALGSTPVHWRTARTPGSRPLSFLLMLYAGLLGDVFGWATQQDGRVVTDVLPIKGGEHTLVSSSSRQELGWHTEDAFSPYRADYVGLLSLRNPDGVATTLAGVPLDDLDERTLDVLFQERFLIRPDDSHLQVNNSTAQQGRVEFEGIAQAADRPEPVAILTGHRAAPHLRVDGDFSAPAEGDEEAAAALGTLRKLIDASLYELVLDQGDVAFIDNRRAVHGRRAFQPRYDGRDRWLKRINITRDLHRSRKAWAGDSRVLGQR
UniProt P0AB87, sequence (whole entry, looked up): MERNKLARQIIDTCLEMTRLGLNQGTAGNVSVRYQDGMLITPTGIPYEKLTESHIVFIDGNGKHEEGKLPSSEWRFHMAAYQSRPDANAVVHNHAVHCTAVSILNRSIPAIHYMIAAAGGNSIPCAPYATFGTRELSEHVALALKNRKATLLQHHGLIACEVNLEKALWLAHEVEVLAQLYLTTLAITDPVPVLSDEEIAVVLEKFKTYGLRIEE
UniProt J9VYP5, sequence (whole entry, looked up): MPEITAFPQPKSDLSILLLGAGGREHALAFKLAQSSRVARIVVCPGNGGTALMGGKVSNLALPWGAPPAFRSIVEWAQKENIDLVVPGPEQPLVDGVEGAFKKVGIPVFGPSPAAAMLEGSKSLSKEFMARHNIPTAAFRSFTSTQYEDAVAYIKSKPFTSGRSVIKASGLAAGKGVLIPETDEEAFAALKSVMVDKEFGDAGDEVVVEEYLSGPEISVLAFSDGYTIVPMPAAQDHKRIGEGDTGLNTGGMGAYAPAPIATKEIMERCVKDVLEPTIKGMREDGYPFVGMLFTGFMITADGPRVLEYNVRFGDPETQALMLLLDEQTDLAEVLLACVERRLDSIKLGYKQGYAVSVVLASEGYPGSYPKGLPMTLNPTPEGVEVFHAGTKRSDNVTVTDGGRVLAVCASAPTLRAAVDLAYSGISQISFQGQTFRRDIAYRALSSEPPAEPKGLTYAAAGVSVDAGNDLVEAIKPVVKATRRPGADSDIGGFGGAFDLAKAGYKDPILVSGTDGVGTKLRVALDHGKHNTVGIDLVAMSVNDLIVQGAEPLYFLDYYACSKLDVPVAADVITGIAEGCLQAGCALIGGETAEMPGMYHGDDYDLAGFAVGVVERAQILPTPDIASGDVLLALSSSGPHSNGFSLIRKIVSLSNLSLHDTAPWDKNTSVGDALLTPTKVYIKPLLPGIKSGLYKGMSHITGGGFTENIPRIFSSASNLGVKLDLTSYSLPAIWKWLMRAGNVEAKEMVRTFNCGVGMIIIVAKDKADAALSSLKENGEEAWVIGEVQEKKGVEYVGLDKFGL
UniProt Q5JTZ9, sequence (whole entry, looked up): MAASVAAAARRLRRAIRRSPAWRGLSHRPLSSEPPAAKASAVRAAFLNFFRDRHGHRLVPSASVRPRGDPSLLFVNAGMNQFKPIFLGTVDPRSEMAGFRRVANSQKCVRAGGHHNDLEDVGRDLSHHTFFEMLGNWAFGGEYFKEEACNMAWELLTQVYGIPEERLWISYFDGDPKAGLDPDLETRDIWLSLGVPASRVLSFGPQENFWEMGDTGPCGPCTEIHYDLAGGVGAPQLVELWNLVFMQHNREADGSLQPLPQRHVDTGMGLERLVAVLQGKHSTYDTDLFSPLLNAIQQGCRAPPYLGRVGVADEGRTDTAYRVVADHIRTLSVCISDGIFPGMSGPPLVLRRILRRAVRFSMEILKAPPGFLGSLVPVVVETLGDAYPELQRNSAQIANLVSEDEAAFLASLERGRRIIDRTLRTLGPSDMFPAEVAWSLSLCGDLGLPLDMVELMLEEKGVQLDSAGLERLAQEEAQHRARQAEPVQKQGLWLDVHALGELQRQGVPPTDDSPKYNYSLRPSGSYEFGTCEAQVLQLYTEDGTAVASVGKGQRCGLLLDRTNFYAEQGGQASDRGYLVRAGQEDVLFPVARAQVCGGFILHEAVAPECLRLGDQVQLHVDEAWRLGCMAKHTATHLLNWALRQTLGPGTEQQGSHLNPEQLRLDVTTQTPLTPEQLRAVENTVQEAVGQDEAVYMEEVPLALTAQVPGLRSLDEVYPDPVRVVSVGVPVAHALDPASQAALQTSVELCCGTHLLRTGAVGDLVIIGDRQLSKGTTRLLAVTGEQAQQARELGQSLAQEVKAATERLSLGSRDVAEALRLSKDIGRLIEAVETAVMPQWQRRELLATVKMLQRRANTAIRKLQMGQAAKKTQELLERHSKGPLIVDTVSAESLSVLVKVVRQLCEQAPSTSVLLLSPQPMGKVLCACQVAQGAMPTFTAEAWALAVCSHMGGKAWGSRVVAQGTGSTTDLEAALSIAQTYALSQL
UniProt Q04JB0, sequence (whole entry, looked up): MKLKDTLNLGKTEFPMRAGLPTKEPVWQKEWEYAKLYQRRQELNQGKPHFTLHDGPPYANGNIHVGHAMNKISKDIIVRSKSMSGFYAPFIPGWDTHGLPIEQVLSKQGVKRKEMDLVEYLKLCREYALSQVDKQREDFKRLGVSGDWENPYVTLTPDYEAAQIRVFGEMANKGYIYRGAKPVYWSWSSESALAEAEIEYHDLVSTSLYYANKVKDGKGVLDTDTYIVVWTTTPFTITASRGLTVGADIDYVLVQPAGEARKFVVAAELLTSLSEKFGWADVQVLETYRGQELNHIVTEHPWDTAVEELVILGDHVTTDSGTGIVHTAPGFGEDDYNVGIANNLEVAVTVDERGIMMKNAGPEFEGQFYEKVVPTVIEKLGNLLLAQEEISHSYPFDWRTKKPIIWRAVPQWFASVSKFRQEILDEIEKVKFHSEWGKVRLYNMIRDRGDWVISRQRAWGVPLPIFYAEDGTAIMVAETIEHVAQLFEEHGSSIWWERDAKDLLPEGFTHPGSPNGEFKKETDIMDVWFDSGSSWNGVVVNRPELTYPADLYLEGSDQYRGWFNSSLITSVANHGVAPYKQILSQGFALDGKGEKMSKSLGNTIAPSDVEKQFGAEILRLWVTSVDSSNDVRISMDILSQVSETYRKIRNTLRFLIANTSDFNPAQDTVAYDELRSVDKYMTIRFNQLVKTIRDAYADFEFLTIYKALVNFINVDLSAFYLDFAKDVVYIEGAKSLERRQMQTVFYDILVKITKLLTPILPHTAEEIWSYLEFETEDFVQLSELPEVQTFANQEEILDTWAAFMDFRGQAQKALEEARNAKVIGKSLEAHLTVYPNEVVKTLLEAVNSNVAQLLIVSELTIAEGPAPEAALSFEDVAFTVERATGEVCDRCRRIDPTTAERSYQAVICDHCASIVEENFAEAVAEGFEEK

| Molecule | substrate | conditions | kcat |
| --- | --- | --- | --- |
| fucA (Escherichia coli, UniProt P0AB87) | C[C@@H](O)[C@@H](O)C(=O)COP(=O)(O)O | pH 7.8, 30 °C | 3.87 s⁻¹ |
| PGDH2 (Oryza sativa, UniProt B7FAD2) | O=C(O)[C@H](O)COP(=O)(O)O | pH 9, 25 °C, NaCl 0.1 M, apparent, with: NAD+ | 30.7 ± 0.4 s⁻¹ |
| B1 (Saccharopine reductase C154S) | N[C@@H](CCC(=O)O)C(=O)O | pH 7, 25 °C, with: NADPH, AASA | 0.27 ± 0.02 s⁻¹ |
| ileS (Streptococcus pneumoniae, UniProt Q04JB0) | CC(C)C[C@H](N)C(=O)O | pH 7.2, 37 °C, with: ATP 2 mM | 0.00267 ± 0.000333 s⁻¹ |
| B2 (estF) | CCOC(C)=O | pH 6.5, 23 °C, apparent | 12 ± 0.5 s⁻¹ |
| vioC (Streptomyces vinaceus, UniProt Q6WZB0) | N=C(N)NOCC[C@H](N)C(=O)O | pH 8, 30 °C, with: alpha-ketoglutarate 1.0 mM | 1.22 ± 0.065 s⁻¹ |
| B3 (BshA Y95F) | CC(=O)N[C@H]1[C@@H](OP(=O)(O)OP(=O)(O)OC[C@H]2O[C@@H](n3ccc(=O)[nH]c3=O)[C@H](O)[C@@H]2O)O[C@H](CO)[C@@H](O)[C@@H]1O | pH 7.5, 21 °C, with: malate 0–25 mM | 0.92 ± 0.03 s⁻¹ |
| B4 (hdhb) | NC(=O)c1ccc[n+]([C@@H]2O[C@H](COP(=O)(O)OP(=O)(O)OC[C@H]3O[C@@H](n4cnc5c(N)ncnc54)[C@H](OP(=O)(O)O)[C@@H]3O)[C@@H](O)[C@H]2O)c1 | pH 8, 25 °C, cofactor varied | 2.4 ± 0.16 s⁻¹ |
| B5 (nicotinamidase) | NC(=O)c1cccnc1 | pH 7.3, progress curve analysis | 2.1 ± 0.1 s⁻¹ |
| B6 (LYS1 C205S/D319A) | NCCCC[C@H](N)C(=O)O | pH 7.2, 25 °C, with: NADH and α-Kg | 35 ± 5 s⁻¹ |
| AARS2 (Homo sapiens, UniProt Q5JTZ9) | C[C@H](N)C(=O)O | pH 8, 37 °C, KCl 20 mM, with: ATP 4 mM | 4.65 ± 0.21 s⁻¹ |
| putA (Bradyrhizobium diazoefficiens, UniProt Q89E26) | O=C(O)[C@@H]1CCC=N1 | pH 7.5, 23 °C | 3.4 ± 0.1 s⁻¹ |
| enzyme (Mortierella alpina, UniProt U5Y3C6) | CCCCCCCC/C=C\CCCCCCCC(=O)SCCNC(=O)CCNC(=O)[C@H](O)C(C)(C)COP(=O)(O)OP(=O)(O)OC[C@H]1O[C@@H](n2cnc3c(N)ncnc32)[C@H](O)[C@@H]1OP(=O)(O)O | pH 7.5, 28 °C | 0.015 ± 0.000667 s⁻¹ |
| B7 (enzyme R108A) | NC(=O)c1ccc[n+]([C@@H]2O[C@H](COP(=O)(O)OP(=O)(O)OC[C@H]3O[C@@H](n4cnc5c(N)ncnc54)[C@H](O)[C@@H]3O)[C@@H](O)[C@H]2O)c1 | pH 7.5, 30 °C, cofactor varied | 0.051 ± 0.001 s⁻¹ |
| B8 (Nudt8) | CC(C)(COP(=O)(O)OP(=O)(O)OC[C@H]1O[C@@H](n2cnc3c(N)ncnc32)[C@H](O)[C@@H]1OP(=O)(O)O)[C@@H](O)C(=O)NCCC(=O)NCCSC(=O)CC(=O)O | pH 8.5, with: 2 mM Mn2+ | 3.07 ± 0.317 s⁻¹ |
| ADE5,7 (Cryptococcus neoformans, UniProt J9VYP5) | Nc1ncnc2c1ncn2[C@@H]1O[C@H](COP(=O)(O)OP(=O)(O)OP(=O)(O)O)[C@@H](O)[C@H]1O | pH 8, 37 °C, apparent | 27.3 ± 0.4 s⁻¹ |
| B9 (MCAT R178A) | CC(C)(COP(=O)(O)OP(=O)(O)OC[C@H]1O[C@@H](n2cnc3c(N)ncnc32)[C@H](O)[C@@H]1OP(=O)(O)O)[C@@H](O)C(=O)NCCC(=O)NCCSC(=O)CC(=O)O | pH 6.8, 20 °C, labelled substrate, with: holo-ACP 20 µM | 0.00617 ± 0.000333 s⁻¹ |

Some of these lines once more:
| Molecule | substrate | conditions | kcat |
| --- | --- | --- | --- |
| B8 (Nudt8) | CC(C)(COP(=O)(O)OP(=O)(O)OC[C@H]1O[C@@H](n2cnc3c(N)ncnc32)[C@H](O)[C@@H]1OP(=O)(O)O)[C@@H](O)C(=O)NCCC(=O)NCCSC(=O)CC(=O)O | pH 8.5, with: 2 mM Mn2+ | 3.07 ± 0.317 s⁻¹ |
